Measured values of several laboratories.
Protocols differ between the studies behind these lines. Values joined by “and” are separate records of one study, mostly repeats; a detail may differ. ≈ marks a conversion by molar mass, not a printed value.
Sequence of UniProt P31751 (whole entry, looked up): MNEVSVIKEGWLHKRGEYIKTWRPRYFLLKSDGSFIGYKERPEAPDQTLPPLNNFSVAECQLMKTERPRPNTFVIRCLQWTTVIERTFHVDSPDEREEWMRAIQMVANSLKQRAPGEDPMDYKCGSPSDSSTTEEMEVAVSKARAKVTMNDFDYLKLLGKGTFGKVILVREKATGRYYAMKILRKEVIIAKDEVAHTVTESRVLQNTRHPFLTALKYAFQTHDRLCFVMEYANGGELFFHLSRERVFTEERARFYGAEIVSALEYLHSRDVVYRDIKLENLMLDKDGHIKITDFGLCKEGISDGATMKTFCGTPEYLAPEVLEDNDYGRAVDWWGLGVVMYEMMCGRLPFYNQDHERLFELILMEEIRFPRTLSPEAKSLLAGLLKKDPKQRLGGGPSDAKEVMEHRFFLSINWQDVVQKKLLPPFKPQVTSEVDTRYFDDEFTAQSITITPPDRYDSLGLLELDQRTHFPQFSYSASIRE

For C[C@H]1CN(c2n[nH]c3nc(N[C@H]4CC[C@H](NS(=O)(=O)CCC(F)(F)F)CC4)ncc23)CCO1, the relative abundance was 1.24 (AKT2 (Homo sapiens, UniProt P31751); inhibitor, Kinobeads competition profiling; 20 µM; baseline: vehicle).
Clc1cc2c(cc1Cl)Oc1cc(Cl)c(Cl)cc1O2 gave a mRNA level of 3.3 fold (RNA-Seq, measured: Ephx1; female Sprague-Dawley rat, liver; dose not given; baseline: vehicle).
NC(CP(=O)(O)O)C(=O)O (racemic): “log2 fold change” -0.0104 (binding, MIDAS equilibrium dialysis LC-MS; A2AR-BRIL thermostabilized; concentration not given; baseline: no-protein control).
[131I-].[Na+]: “biochemical incomplete response” 13.4% (ATA response criteria; human, papillary thyroid cancer with metastases; 3700 MBq).
For CCCCC1(CCCC)CN(c2ccccc2)c2cc(SC)c(OCC(=O)N[C@@H](C(=O)NCC(=O)O)c3ccccc3)cc2S(=O)(=O)C1, the serum LDL-C was 99.6 mg/dL (measured: LDL cholesterol; human, serum; 5 mg once daily, day 9).
C[C@H]1O[C@@H](O[C@H]2CC[C@@]3(C)[C@@H](CC[C@]4(C)[C@@H]3C=C[C@]35OC[C@@]6(CCC(C)(C)C[C@H]63)[C@@H](O)C[C@]54C)[C@]2(C)CO)[C@H](O)[C@@H](O[C@@H]2O[C@H](CO)[C@@H](O)[C@H](O)[C@H]2O)[C@H]1O — result for “body weight change”: 1.6 g and 1.4 g and 0.7 g and 1.9 g and 2.1 g (mouse, no ethanol, hepatic SIRT1 knockdown; dose not given, high dose, during treatment).
Under “time in open areas”, C[C@]12CC[C@@H](O)C[C@@H]1CC[C@@H]1[C@@H]2CC[C@]2(C)[C@@H]([N+](=O)[O-])CC[C@@H]12 is recorded as “increased” (elevated zero maze; male NIH Swiss mice; i.p., 10 mg/kg; baseline: vehicle).
The IC50 of CCNC(=O)N1CCN(CCCC(c2ccc(F)cc2)c2ccc(F)cc2)CC1 is reported as 2510 nM (Plasmodium falciparum; Dd2).
N=C(N)NCCC[C@H](NC(=O)CCCCCNC(=O)[C@H](CCCNC(=N)N)NC(=O)[C@H](CCCNC(=N)N)NC(=O)CCCCCNC(=O)[C@H](CCCNC(=N)N)NC(=O)[C@H](CCCNC(=N)N)NC(=O)CCCCCNC(=O)[C@H](CCCNC(=N)N)NC(=O)[C@H](CCCNC(=N)N)NC(=O)CCCCCNC(=O)[C@@H](N)CCCNC(=N)N)C(=O)NCCCCCC(=O)NCCC(=O)O has an MIC of 48 µM (≈ 91.4 µg/mL) (broth microdilution; ATCC 33591 resistant strain, Mueller-Hinton broth).
With CCN(CC)CCOCCOC(=O)C1(c2ccccc2)CCCC1 the IC50 was 3160 nM (Plasmodium falciparum; Dd2).
For CC[C@H](C)[C@@H]1NC(=O)[C@@H]2CCCN2C(=O)[C@H](CC(C)C)NC(=O)[C@H](CC(C)C)NC(=O)CNC(=O)[C@@H](NC(=O)[C@@H](NC(=O)[C@H](CC(=O)O)NC(=O)CNC(=O)[C@@H](NC(=O)[C@H](C)NC(=O)CNC(=O)[C@H](CCCCN)NC(=O)[C@H](CC(C)C)NC(=O)[C@H](CC(C)C)NC(=O)[C@H](CCCCN)NC(=O)CNC(=O)[C@@H](NC(=O)[C@@H](N)CC(C)C)C(C)C)C(C)C)C(C)C)CSSC[C@@H](C(=O)O)NC1=O, “log2 fold change” read -1 (RNA-seq, measured: H3f3a-ps1 mRNA; mouse traumatic brain injury, frontal cortex and hippocampus; dose not given; baseline: TBI plus compound vs TBI).

A few entries again:
C[C@H]1O[C@@H](O[C@H]2CC[C@@]3(C)[C@@H](CC[C@]4(C)[C@@H]3C=C[C@]35OC[C@@]6(CCC(C)(C)C[C@H]63)[C@@H](O)C[C@]54C)[C@]2(C)CO)[C@H](O)[C@@H](O[C@@H]2O[C@H](CO)[C@@H](O)[C@H](O)[C@H]2O)[C@H]1O — result for “body weight change”: 1.6 g and 1.4 g and 0.7 g and 1.9 g and 2.1 g (mouse, no ethanol, hepatic SIRT1 knockdown; dose not given, high dose, during treatment).
